Results pooled from the literature.
Numbered parts are unrelated; each lists some results of a single study. Changes are numbered by the printed parent chain.

Series 1 — technique: aptamer microarray, sandwich; molecule type: DNA with 2'F-ANA; medium: in vitro; concentration: 200 nM; with: Cy3 exosite-II aptamer, 400 nM; reading: higher = stronger binding; strand: GGTTGGTGTGGTTGG
Target: Prothrombin, mature alpha-thrombin (F2, Homo sapiens, UniProt P00734)
Notes: whole 15-mer aptamer, many near background
Modification	mean fluorescence intensity
2'F-ANA at 2 3 6 9 13 14	342 a.u.
2'F-ANA at 2 4 5 7 8 12 13	142 a.u.
2'F-ANA at 4 5 6 7 9 10 12 13 14	55.5 a.u.
2'F-ANA at 7 9 10 11 13 14 15	117 a.u.
2'F-ANA at 5 6 7 9 10 11 13 15	48.1 a.u.
2'F-ANA at 1 2 3 5 7 8 10 11 12 13 14 15	48.9 a.u.
2'F-ANA at 1 2 4 5 6 10 12 13 14 15	84.2 a.u.
2'F-ANA at 1 3 5 10 11 12 13 15	50 a.u.
2'F-ANA at 2 3 4 5 11 12 13 14 15	49.8 a.u.
2'F-ANA at 1 2 4 5 6 7 15	55.4 a.u.
2'F-ANA at 1 4 7 9 15	133 a.u.
2'F-ANA at 2 12 13	742 a.u.
2'F-ANA at 2 4 8 9 11 12 14 15	120 a.u.
2'F-ANA at 1 2 4 10 11 12 14 15	58.9 a.u.
2'F-ANA at 2 5 7	95.5 a.u.
2'F-ANA at 3 4 6 7 9 14 15	240 a.u.
2'F-ANA at 3 4 10 14	248 a.u.
2'F-ANA at 1 6 8 9 10	57.6 a.u.
2'F-ANA at 1 2 3 4 6 7 8 9 11 12 13 14	63.7 a.u.
2'F-ANA at 1 2 4 6 7 8 11 12	226 a.u.
2'F-ANA at 2 5 10 11 13	49.3 a.u.
2'F-ANA at 1 2 4 5 6 10 11 15	49.2 a.u.
2'F-ANA at 2 4 7 10 12 15	139 a.u.
2'F-ANA at 1 2 4 5 6 10 13	62.2 a.u.
2'F-ANA at 1 2 3 9 10	67.7 a.u.

Series 2 — technique: competition protein-binding microarray; molecule type: double-stranded DNA, one strand shown; medium: in vitro; concentration: 2 µM; with: Pho4 competitor, 0.05 µM; reading: higher = stronger binding
Target: Centromere-binding protein 1, full length, His-tagged (CBF1, Saccharomyces cerevisiae, UniProt P17106, residues 1-351)
UniProt P17106, sequence (whole entry, looked up): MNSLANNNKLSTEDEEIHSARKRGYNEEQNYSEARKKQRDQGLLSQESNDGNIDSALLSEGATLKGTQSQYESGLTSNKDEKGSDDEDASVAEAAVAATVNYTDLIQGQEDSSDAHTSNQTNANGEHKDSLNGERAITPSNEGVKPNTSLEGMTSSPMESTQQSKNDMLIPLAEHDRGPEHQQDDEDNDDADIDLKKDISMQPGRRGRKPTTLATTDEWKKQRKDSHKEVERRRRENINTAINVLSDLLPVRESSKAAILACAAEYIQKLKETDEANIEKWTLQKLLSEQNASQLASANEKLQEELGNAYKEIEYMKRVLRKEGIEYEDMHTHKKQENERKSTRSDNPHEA
Notes: whole 60-bp probe, lowest competitor level
Strand	fluorescence intensity [a.u.]
CTTTCCCGATCTTGACGGGTGGGTGTAGCACATTTGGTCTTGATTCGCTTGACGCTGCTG	50.4
CGGGGTTAAGTTTGCGGCGTGGGTGGCTTGCAGCAGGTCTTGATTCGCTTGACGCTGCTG	65.1
AAGTGGATTTGCCAGCCCGTGTCTGTTTAGAGATGTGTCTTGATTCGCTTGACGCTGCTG	75.1
GGCGAATGGAAAAATCACCTGGCAAGTCATTTCATCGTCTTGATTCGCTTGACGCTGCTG	112
TCTAGCATTTCCATACAGGTGATAGTATCAAATTGTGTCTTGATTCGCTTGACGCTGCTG	117
CCGGATAATCTACATCATGTGGTACGTTAACGATGTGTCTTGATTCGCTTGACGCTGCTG	562
TGGTCCTAAACTCACCACGTGAAATAGGTTGATAATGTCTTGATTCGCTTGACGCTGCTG	884
ACATCAAGGCACAATCACCTGATGAGTCTGCCTTAGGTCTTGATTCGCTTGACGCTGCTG	327
AAAGCGGTAATTTGTCCAGTGGGTGCAGATATCTATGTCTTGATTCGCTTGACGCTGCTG	70.6
GGAGACGAAGGATGGGGCGTGCTGTCATTAGAGGTAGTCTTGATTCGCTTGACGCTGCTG	73.1
TGCGCAACAACTTTTCACGTGCACTTATGTCTAGAAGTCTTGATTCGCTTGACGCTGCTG	1210
ACCTCTTCCATGTCCCACGTAATGGCAATTGGCATAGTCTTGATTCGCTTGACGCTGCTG	69.9
TGTGTTAGAATACACAGCGTGCCGAGTTCCTGGTGCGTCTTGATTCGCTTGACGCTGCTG	65.7
GTCTTGTCTCATTGCCACGTGTTTTTCCCCACTTCAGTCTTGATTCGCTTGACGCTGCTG	1130
GAATTTTTTCGAATTAGCGTGCTTTCACTGCTTGCAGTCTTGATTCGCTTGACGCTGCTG	80.3
GGCATATTCTCTTGTAGTGTGACGGAAGGTGCGGGTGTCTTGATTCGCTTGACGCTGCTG	71.9
AGCTTGGGGTGCTTGGGCGTGCGATGCTCGAGGCATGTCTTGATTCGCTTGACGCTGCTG	54.8
ATAGCAGCCTATGGACACGGGATACAGTACCAGCAAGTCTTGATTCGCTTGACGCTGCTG	157
CTAACGAAGGTTTGGCGGGTGGGTGACAAGCCAAGTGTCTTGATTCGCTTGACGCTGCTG	65.1

Series 3 — technique: DHFR PCA, deep sequencing; medium: yeast; with: (+)-ABA 0 µM; relative to: wild-type fitted maximum; reading: higher = stronger binding
Target: ABI1, truncated, D143A, DHFR fusion (Arabidopsis thaliana)
Notes: methotrexate growth selection, single substitutions
Starting sequence: PYL1, truncated, DHFR fusion (Arabidopsis thaliana); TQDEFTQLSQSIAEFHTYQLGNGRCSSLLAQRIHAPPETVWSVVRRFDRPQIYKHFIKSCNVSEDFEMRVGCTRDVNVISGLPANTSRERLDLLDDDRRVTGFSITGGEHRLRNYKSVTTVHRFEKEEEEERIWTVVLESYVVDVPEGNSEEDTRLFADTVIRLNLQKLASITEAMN
Substitution	relative binding score [%]
E174P	1.57
S11C	25.4
V145Y	-11.5
V118R	36
Y141H	4.53
L169P	1.75
R98N	1.25
A158I	30.8
F66V	12.7
R123F	-12.4
H110N	49.1
R32H	12.8
K126F	10.5
R132P	38.9
L94Q	-2.85
F47H	-19.4
M68H	3.36
A84Q	22.4
R98D	-7.46
D92F	0.297
N177I	13.3
R98Q	5.37
L93C	3.16
I162M	7.57
E151R	11.5

Series 4 — technique: RNA Bind-n-Seq; molecule type: RNA; medium: in vitro; concentration: 365 nM; relative to: no-protein control; reading: higher = stronger binding
Target: RNA binding protein fox-1 homolog 2, RRM domain, GST-SBP tag (RBFOX2, Homo sapiens, UniProt O43251-10, residues 100-194)
Notes: natural RNA segment, single round, ends assumed
Construct (chain): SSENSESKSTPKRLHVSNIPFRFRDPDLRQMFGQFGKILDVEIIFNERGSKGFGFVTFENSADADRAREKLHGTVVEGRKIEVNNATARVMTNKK
Strand	RBNS enrichment (R)
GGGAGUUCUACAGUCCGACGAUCUUAGGUCAUCUCAAGGCUGAUACUUGAGCUGUGUGCCCAGAGAUCAUGCAUUUAGAUUUAUAUUUUUGCCAGAAAAUACAAGGUUAUAAUAAAACUAAGAACUACCAUUUUGGAAUUCUCGGGUGCCAA	0.311
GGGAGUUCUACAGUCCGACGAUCUCCUCCGCUAGUCCCUGUGUCCUUCCUGGGCACGGGGUGAGAGCUGUAGAAGCGGUGGGGGCACAGCUAGCCACAGUUUUUCCUUUUCCCUACCUUAGUCUGACAGAGGAUGGAAUUCUCGGGUGCCAA	0.332
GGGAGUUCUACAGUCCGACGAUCAACAAAGCCCACAGGAUACGCCCGAGACCCUCAAUUCAAGGAGAGCUCCAAGGAUGUGUUGGACUCUGUGCUCCAGUGGGGCACUGGCUGCACGUGGGUCCUUGGAGAUGUGGAAUUCUCGGGUGCCAA	0.337
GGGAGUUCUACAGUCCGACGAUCUCUUAUUGGUUGAUAUUACCACAUGAAAUAUUGCCAGACCAAGAUACCUAAACUCAUGAUGUCUGUGGUGCUGUAAAAUUUAUACUAAAAUGUGGACUAUUUUGAAAUUAUGGAAUUCUCGGGUGCCAA	0.357
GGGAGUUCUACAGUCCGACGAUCGAGCAGCUCACACUCCCUCCGCUGGGAACGAUGGCUUCUGCCUAGUACCUAUCCUUGUGUUUCUGAUGCAGUGGUAGCAUUGGUUCAAGUUCUCUCCUGCUGUGGUCAGAUGGAAUUCUCGGGUGCCAA	0.318
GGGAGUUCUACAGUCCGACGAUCUUUACACGGCUUAUGGUGGAUGAGGACAAAAACUUUGGAAUAGCAAGCUAACACUGAAAAAAAAAAUGACAAAUUAAUGUGUCCUAUUAUCCAGGCUACAUCAGGAGGUUUGGAAUUCUCGGGUGCCAA	0.674
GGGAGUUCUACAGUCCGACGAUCGCGGCCCCCACCAGGGCACACCCUACUGUCCUUGUGCCUCACGCCCCCUCCUCAUCCUGCACCCCUUCCAUCCCACCUUCCCUUUCAAUAAACAGCUGGGAUGGAUACUGUGGAAUUCUCGGGUGCCAA	0.566
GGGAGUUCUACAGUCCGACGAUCCCAUCUGGCCUGGCUGGAGCCAGGAACAGGAGGGACACUUCCCCAGAAUCCGCAUGUUUCCCCAGUGAUUACACUCCACUGCCACCGUGGUGCCUGGCUUUAACUCCCACUGGAAUUCUCGGGUGCCAA	4
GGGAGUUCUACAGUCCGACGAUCCAUCCUGGCGAUUAUCAACAACAUGCAGCAGUGUGGCGCCAGGCUCUGCAGGGUGGGCCUGAUCCCAGAGUGGUGCUUACUGUGCUGACUGUGUACUUAUCUUCCCCAAGUGGAAUUCUCGGGUGCCAA	0.446

For quick reference, copied from above (series 4):
Strand	RBNS enrichment (R)
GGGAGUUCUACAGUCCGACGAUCAACAAAGCCCACAGGAUACGCCCGAGACCCUCAAUUCAAGGAGAGCUCCAAGGAUGUGUUGGACUCUGUGCUCCAGUGGGGCACUGGCUGCACGUGGGUCCUUGGAGAUGUGGAAUUCUCGGGUGCCAA	0.337
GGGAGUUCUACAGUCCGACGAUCGCGGCCCCCACCAGGGCACACCCUACUGUCCUUGUGCCUCACGCCCCCUCCUCAUCCUGCACCCCUUCCAUCCCACCUUCCCUUUCAAUAAACAGCUGGGAUGGAUACUGUGGAAUUCUCGGGUGCCAA	0.566
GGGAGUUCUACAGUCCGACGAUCUUAGGUCAUCUCAAGGCUGAUACUUGAGCUGUGUGCCCAGAGAUCAUGCAUUUAGAUUUAUAUUUUUGCCAGAAAAUACAAGGUUAUAAUAAAACUAAGAACUACCAUUUUGGAAUUCUCGGGUGCCAA	0.311
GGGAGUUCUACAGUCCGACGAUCUCCUCCGCUAGUCCCUGUGUCCUUCCUGGGCACGGGGUGAGAGCUGUAGAAGCGGUGGGGGCACAGCUAGCCACAGUUUUUCCUUUUCCCUACCUUAGUCUGACAGAGGAUGGAAUUCUCGGGUGCCAA	0.332
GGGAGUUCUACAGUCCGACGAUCCAUCCUGGCGAUUAUCAACAACAUGCAGCAGUGUGGCGCCAGGCUCUGCAGGGUGGGCCUGAUCCCAGAGUGGUGCUUACUGUGCUGACUGUGUACUUAUCUUCCCCAAGUGGAAUUCUCGGGUGCCAA	0.446
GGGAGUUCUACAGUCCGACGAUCGAGCAGCUCACACUCCCUCCGCUGGGAACGAUGGCUUCUGCCUAGUACCUAUCCUUGUGUUUCUGAUGCAGUGGUAGCAUUGGUUCAAGUUCUCUCCUGCUGUGGUCAGAUGGAAUUCUCGGGUGCCAA	0.318
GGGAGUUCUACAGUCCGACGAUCUUUACACGGCUUAUGGUGGAUGAGGACAAAAACUUUGGAAUAGCAAGCUAACACUGAAAAAAAAAAUGACAAAUUAAUGUGUCCUAUUAUCCAGGCUACAUCAGGAGGUUUGGAAUUCUCGGGUGCCAA	0.674
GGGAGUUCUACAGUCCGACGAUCUCUUAUUGGUUGAUAUUACCACAUGAAAUAUUGCCAGACCAAGAUACCUAAACUCAUGAUGUCUGUGGUGCUGUAAAAUUUAUACUAAAAUGUGGACUAUUUUGAAAUUAUGGAAUUCUCGGGUGCCAA	0.357
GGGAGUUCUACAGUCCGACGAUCCCAUCUGGCCUGGCUGGAGCCAGGAACAGGAGGGACACUUCCCCAGAAUCCGCAUGUUUCCCCAGUGAUUACACUCCACUGCCACCGUGGUGCCUGGCUUUAACUCCCACUGGAAUUCUCGGGUGCCAA	4
